Measured values gathered from unrelated publications.
Lines come from different studies, so protocols differ. “And” joins repeats or separate records; there may be more than shown. ± marks the error that the study gave.

Compound | target | test | test system | setting | how to read | quantity | result
Cc1nc(NC(=O)c2cc(S(=O)(=O)N(C)C)ccc2N(C)C2CCCC2)sc1C | oligosaccharyltransferase | N-glycosylation, inhibitor, luciferase reporter |  |  |  | IC50 | 0.38 µM
[Cl-].[Cl-].[Pt+2].[Ru+2].c1ccc(-c2nc3ccccc3nc2-c2ccccn2)nc1.c1cnc2c(c1)ccc1cccnc12.c1cnc2c(c1)ccc1cccnc12 | pcDNA supercoiled plasmid | agarose gel electrophoresis |  | 10 µM, photoinduced cleavage, together with: 0.1 µM pcDNA |  | nicked circular DNA | 7.4%
CN(C)CCCOc1cc(NC(=O)c2cc(Cl)cc(C(=O)Nc3cc(OCCCN(C)C)c4ccccc4n3)n2)nc2ccccc12 | c-myc G-quadruplex DNA | FRET melting |  | 1 µM, pH 7.4, together with: 60 mM potassium |  | ΔTm | 16.9 ± 0.8 K
Cc1cc(F)cc2c(CCC(=O)N[C@@H]3C(=O)NC[C@H]3O)c(-c3ccc(F)cc3)[nH]c12 | NMDA glutamate receptor, glycine site | binding |  | 10 µM |  | inhibition | 3%
COc1cc(C(=O)Nc2cc(OCCN3CCCC3)c3ccccc3n2)nc(C(=O)Nc2cc(OCCN3CCCC3)c3ccccc3n2)c1 | c-myc G-quadruplex DNA | FRET melting |  | 1 µM, pH 7.4, together with: 60 mM potassium |  | ΔTm | 4.9 ± 0.8 K
CC[S+]([O-])c1nc(-c2ccccc2)cc(C(F)(F)F)n1 (stereo not shown) | importin beta-1 | SREBP1 nuclear import, high content imaging | HeLa Kyoto | 5.01 µM, 3 h, together with: glucose and MG132 |  | cells with nuclear SREBP1 | 90.6% and 91.6% and 87.7% and 88.9%
CNC(=O)c1ccc2nccc(NCCc3ccccc3)c2c1 | CDK8/CDK19 | NF-κB reporter gene | 293-NFκB-Luc | 3 h, together with: TNF-α 10 ng/mL |  | IC50 | > 5 µM
Oc1ccccc1-c1n[nH]cc1-c1ccnc2ccccc12 | TPK1 (Candida albicans) | kinase binding, MIB/MS competition | Candida albicans lysate | 1 µM | baseline: DMSO | log2 fold change | 0.09
CN(C)CCCOc1cc(NC(=O)c2cccc(C(=O)Nc3cc(OCCCN(C)C)c4ccccc4n3)n2)nc2ccccc12 | c-myc G-quadruplex DNA | FRET melting |  | 1 µM, pH 7.4, together with: 60 mM potassium |  | ΔTm | 16.6 ± 0.4 K
[Cl-].[Cl-].[Pt+2].[Ru+2].c1ccc(-c2nc3cc4ccccc4cc3nc2-c2ccccn2)nc1.c1cnc2c(c1)ccc1cccnc12.c1cnc2c(c1)ccc1cccnc12 | pcDNA supercoiled plasmid | agarose gel electrophoresis |  | 50 µM, photoinduced cleavage, together with: 0.1 µM pcDNA |  | nicked circular DNA | 14%
c1coc(-c2n[nH]cc2-c2ccnc3ccccc23)c1 | KIN2 (Candida albicans) | kinase binding, MIB/MS competition | Candida albicans lysate | 1 µM | baseline: DMSO | log2 fold change | -0.09
CCN(CC)c1ccc(/C=N/c2ccc(Cl)cc2)c(O)c1 | yeast alpha-glucosidase | enzyme activity |  | together with: pNPG |  | IC50 | 191 µM
CC(Nc1nc(N2CCCC2)nc2ccccc12)c1ccccc1 (stereo not shown) | importin α/β1 | cMyc nuclear import, high content imaging | HeLa Kyoto reporter | 0.1 µM, 2 h |  | cells with nuclear reporter | 88.3% and 98.5%
[Cl-].[Cl-].[Pt+2].[Ru+2].c1ccc(-c2nccnc2-c2ccccn2)nc1.c1cnc2c(c1)ccc1cccnc12.c1cnc2c(c1)ccc1cccnc12 | pcDNA supercoiled plasmid | agarose gel electrophoresis |  | 10 µM, photoinduced cleavage, together with: 0.1 µM pcDNA |  | nicked circular DNA | 18.3%
CCS(=O)(=O)c1nc(C2CC2)cc(C(F)(F)F)n1 | importin beta-1 | SREBP1 nuclear import, high content imaging | HeLa Kyoto | 50 µM, 3 h, together with: glucose and MG132 |  | cells with nuclear SREBP1 | 51.1% and 54.4% and 66.1% and 66.9%
CCOc1ccc2c(C(F)(F)F)cc(=O)oc2c1 | rabbit cytochrome P450 2B4 F297A | O-deethylation, substrate |  |  |  | kcat | 5.4 ± 0.2 min⁻¹

A few entries again:
Compound | target | test | test system | setting | how to read | quantity | result
[Cl-].[Cl-].[Pt+2].[Ru+2].c1ccc(-c2nc3ccccc3nc2-c2ccccn2)nc1.c1cnc2c(c1)ccc1cccnc12.c1cnc2c(c1)ccc1cccnc12 | pcDNA supercoiled plasmid | agarose gel electrophoresis |  | 10 µM, photoinduced cleavage, together with: 0.1 µM pcDNA |  | nicked circular DNA | 7.4%
COc1cc(C(=O)Nc2cc(OCCN3CCCC3)c3ccccc3n2)nc(C(=O)Nc2cc(OCCN3CCCC3)c3ccccc3n2)c1 | c-myc G-quadruplex DNA | FRET melting |  | 1 µM, pH 7.4, together with: 60 mM potassium |  | ΔTm | 4.9 ± 0.8 K
